Measurements from different studies.
Protocols differ between the studies behind these lines.
EGFR L861Q: Epidermal growth factor receptor (EGFR, Homo sapiens, UniProt P00533, L861Q)
EGFR T790M: Epidermal growth factor receptor (EGFR, Homo sapiens, UniProt P00533, T790M)

CCN1CCN(Cc2ccc(C(=O)Nc3ccc(C)c(NCc4cnc5[nH]ccc5c4OC)c3)cc2C(F)(F)F)CC1 — remaining binding (EGFR (Homo sapiens, UniProt P00533, G719S); binding, competition with immobilised ligand; 1 µM): 1.8%
C=CC(=O)N1CCCC(n2c(=O)c3ncccc3n(Cc3ccc(Oc4ccccc4)cc3)c2=O)C1 (stereo not shown) — remaining binding (EGFR L861Q; cell-free assay, competition with immobilised ligand; 1 µM): 91%
COc1c(Cl)cccc1Nc1c(-c2ccncc2C#C[C@@]2(C)CCCN2C(=O)/C=C/CN(C)C)[nH]c2c1C(=O)NCC2 — remaining binding (EGFR (Homo sapiens, UniProt P00533, del752-759); cell-free assay, competition with immobilised ligand; 3 µM): 0%
CCN1CCN(Cc2ccc(NC(=O)c3ccc(C)c(NC(=O)c4cncc(-c5cccs5)c4)c3)cc2C(F)(F)F)CC1 — remaining binding (EGFR (Homo sapiens, UniProt P00533, del746-750); binding, competition with immobilised ligand; 1 µM): 0.9%
CNC1C[S+]2CC[S+]3CC[S+](C1)[Ru-4]321([N]=C=S)[n]2c3ccc(OC)cc3c3c4c(c5cc(F)c[n+]1c5c32)C(=O)NC4=O (stereo not shown) — remaining binding (EGFR L861Q; KinomeScan; 0.1 µM; baseline: untreated): 84%
Cc1ccc(-c2c(/C=C(\C#N)C(=O)NC(C)C)n(CCCO)c3ncnc(N)c23)cc1 — remaining binding (EGFR T790M; cell-free assay, competition with immobilised ligand; 1 µM): 100%
Nc1ncc2c(n1)-c1c([nH]c3ccc(C4=CCOCC4)cc13)CCC2 — remaining binding (EGFR T790M; binding, competition with immobilised ligand; 1 µM): 84%
CC(C)=CC1OC(C)(C)C2C=C3C(=O)C(Cl)=CC(O)C3C3C(O)C4OC4C(=O)C132 (stereo not shown) — remaining binding (EGFR L861Q; cell-free assay, competition with immobilised ligand; 10 µM): 96%
CNC(=O)C1CCN(c2cc(C)c(F)cc2NC(=O)c2ccc(-c3cc(O)ccc3C)c(C)c2)CC1 — remaining binding (EGFR (Homo sapiens, UniProt P00533, L858R/T790M); binding, competition with immobilised ligand; 1 µM): 56%
C=CC(=O)N1CCc2ccc(-n3c(=O)ccc4cnc5ccc(-c6cnn(C)c6)cc5c43)cc21 — remaining binding (EGFR (Homo sapiens, UniProt P00533, L858R); KINOMEscan; 1 µM; baseline: DMSO control): 100%
